Measured values gathered from unrelated publications.
Every numbered part comes from another study and shows a few of its results, in no order. Changes are numbered by the printed parent chain.

Set 1 — technique: RNA Bind-n-Seq; form: RNA; medium: in vitro; tested at: not given; relative to: input RNA pool; reading: higher = stronger binding
Target: RING finger protein unkempt homolog, zinc fingers 1-6, GST-SBP tag (UNK, Homo sapiens, UniProt Q9C0B0, residues 30-357)
Chain of UniProt Q9C0B0 (30-357, looked up): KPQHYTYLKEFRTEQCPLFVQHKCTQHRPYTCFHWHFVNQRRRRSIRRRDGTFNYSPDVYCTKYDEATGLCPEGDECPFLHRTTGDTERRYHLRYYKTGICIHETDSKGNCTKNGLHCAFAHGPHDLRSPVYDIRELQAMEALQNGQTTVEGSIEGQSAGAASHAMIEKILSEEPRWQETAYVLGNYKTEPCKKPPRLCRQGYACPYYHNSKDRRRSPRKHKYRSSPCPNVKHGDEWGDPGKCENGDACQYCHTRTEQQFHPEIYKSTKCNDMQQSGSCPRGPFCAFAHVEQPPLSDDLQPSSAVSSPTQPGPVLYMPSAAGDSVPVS
Setting: RNA with constant flanks, human and mouse sites, ends assumed
Constant ends, left off below: GGGAGUUCUACAGUCCGACGAUC … CAACAGAGGAUUGAGCAUCA
| Sequence | bound/input enrichment [ratio] |
| --- | --- |
| UAUCAGUCUCUCCUUAUCAGAGGAGAGACCUUUUAUUUUUAAGAUGACUACAGACCUAUUUUUAGAUAAGUUUUCAGUACAAUUUUGAACUACAACUUUUUUAACAAAACAUCUUCCAGU | 0.261 |
| AAAGAGAAAGAUGAAAUGGUAGAGCAAGAGUUUAACCGGUUGCUAGAAGCUACAUCUUACCUUAGUCAUCAACUAGACUUCAAUGUCCUCAAUAAUAAGCCUGUGUCCCUUGGCCAGGCA | 0.373 |
| GUCAACCGUGUUACCAUACUGUGUGACAAAUUUAGUGGCCAUCCCAAAGGGUUUGCGUAUAUAGAGUUCUCAGACAAAGAGUCAGUGAGGACUUCCUUGGCCUUAGAUGAGUCCCUAUUU | 0.518 |
| GAGCUCUUCCCUGCUCGCUCACGCCUGCUCUCAGAAGCUCCGAUCCAGACACACGCGAGGCGCUGUCCUUUCAGCACCACAAGCUCGGGCUGAGGAGGGAGGACUCCUGGCCGUCCUCCU | 0.112 |
| AACCAAUCAAAAACCACUCCUUUUAAAGAUUGCAAAGUAUUAAAACAAAGGCCAAGGUUUGUAGCCCUGAAGAAGCAGCCAUCCUAUAUUGGAGGACAUGAGGGCUUAGAAUUAAGAGAU | 0.582 |
| ACAGGUACCCACAGACUUGGCACAAAAAUUUGCUGACACACACAGUAUGCCUUUGUUUGAAACGUCUGCUAAAAACCCCAAUGAUAAUGACCAUGUGGAAGCUAUAUUUAUGACCUUGGC | 0.277 |
| GCCCUCAACUUCUCCGUGUUCUACUAUGAGAUCCAGAAUGCACCUGAGCAAGCCUGCCUCUUAGCCAAACAAGCCUUCGAUGAUGCCAUAGCUGAGCUGGACACACUAAACGAGGAUUCC | 0.256 |
| UAGGCCCUGGAUUAUGUAGAAGAUUUAGAUACUAAGCCUCAAGAGACGUCUUUCCUCUCAUUUACGGUCUUCCUGCAUAUUUAAAAUUUCUAAUACGGUAGACAGAGUCGGUGUCUUUGA | 1.5 |
| AUUCCGUUCAUUGAGACCUCAGCAAAGACAAGACAGGGUGUUGACGAUGCCUUCUAUACAUUAGUCCGAGAAAUUCGAAAACAUAAAGAAAAGAUGAGCAAAGAUGGGAAGAAGAAGAAG | 0.648 |
| ACUUAACAUUGAAAAAGCAUAUGGUAAUGGUGGUAUCUCUGCAGCCUCACCGACCCAGGCACUGUCAACAGGUGCUGCCACACAUUCCUGGUCUCCAGUGCCCUCCCUGUCUCUUACAGG | 0.174 |
| GUCGACGUGUGCAGAAAUCCUGCUAGUCUGGUCCUUGUUUCCAUCUGGGUACCAGCUCCCUUUAGCCUUGCAGACGGUGGUGCGAGAGGCCAGCGGCCAGAAGAGACAGCUUGCUUCAAU | 0.454 |

Set 2 — target: BATF, bZIP domain (human); technique: DHFR protein complementation; medium: yeast; relative to: wild-type JUN-FOS pair; reading: higher = stronger binding
Setting: single substitutions, most at no-binding floor
Parent: JUN, bZIP domain (human); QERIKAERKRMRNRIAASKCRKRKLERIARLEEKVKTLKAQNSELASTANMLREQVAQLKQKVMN; partner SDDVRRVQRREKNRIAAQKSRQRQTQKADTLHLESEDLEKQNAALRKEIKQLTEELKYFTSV
| Substitution | binding fitness [natural log] |
| --- | --- |
| A40I | -0.0293 |
| L45V | -1.23 |
| E54S | -0.1 |
| V35C | -0.0918 |
| E44L | -0.123 |
| S43Y | -0.088 |
| T48H | 0.009 |
| L31K | -0.279 |
| T48M | -0.0309 |
| R53I | -0.657 |
| N42H | -0.0248 |
| E44K | 0.00332 |
| A46F | -0.113 |
| M51W | -0.08 |
| N42C | -0.494 |
| E33C | -0.204 |
| V56F | -0.675 |
| L31S | -0.222 |
| T48K | 0.0477 |
| K36G | -0.0863 |
| L38C | -0.711 |
| L59F | -0.128 |
| N42D | -1.1 |
| E54W | -0.341 |
| K39S | -0.171 |

Set 3 — technique: EMSA with sequencing; form: double-stranded DNA, one strand shown; medium: in vitro; tested at: 10 and 20 nM; relative to: negative control set to 0; reading: higher = stronger binding
Target: Hepatocyte nuclear factor 3-alpha (Foxa1, Mus musculus, UniProt P35582, residues 1-468, full length assumed)
Setting: whole designed probe, mean of two concentrations, ends assumed
Constant ends, left off below: GTGAGCGGTGCCCATTGATGGGGAAC … TTTCACTGGGATCGTGGGGAC
Construct (chain): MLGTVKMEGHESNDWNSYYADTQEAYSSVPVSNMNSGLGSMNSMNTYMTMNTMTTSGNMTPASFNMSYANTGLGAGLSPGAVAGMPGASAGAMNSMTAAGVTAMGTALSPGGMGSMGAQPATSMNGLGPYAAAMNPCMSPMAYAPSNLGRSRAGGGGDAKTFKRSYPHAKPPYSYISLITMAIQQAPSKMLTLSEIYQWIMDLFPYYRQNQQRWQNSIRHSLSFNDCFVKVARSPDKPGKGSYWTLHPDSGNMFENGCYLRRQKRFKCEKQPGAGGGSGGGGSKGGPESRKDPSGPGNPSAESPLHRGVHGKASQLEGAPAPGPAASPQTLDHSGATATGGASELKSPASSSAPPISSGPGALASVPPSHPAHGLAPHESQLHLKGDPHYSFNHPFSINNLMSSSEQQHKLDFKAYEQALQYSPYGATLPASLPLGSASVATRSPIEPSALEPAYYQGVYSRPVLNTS
| Sequence | normalised bound fraction |
| --- | --- |
| TCCCTTTGTTCTACTCCTATACTCAAGTAATTCTGGAACACAGGCCATTTCACAAAGATTCTCTTCCCTATACACCATATTTACCTTTATTTCTTGTTTACTTAGCAAGCTTCTACATATCATTTCAGGTTTAGTTCTAACAAGCCTTTTCTTATGAACCTTTGTTTGATCTTCCTCCCTCCATCCTCTCCTT | 0.556 ratio |
| ATCTTCCCCCTCTTCCTTGCCCCACCAGCTCACCTTCCCGGGTTATTTGCAGATAGGAAAATAAATAAAGCCGGCATTCGTTAACGCAGTTCTGGCGCAAACTGCTGTTTGCTCTGCATCTAACATGGTCCTTACGCGACGCCAGGCTCCGGGAGAGCAAAGCACCGTGTCAGGCGCATGATCCGGGGTGGCC | 0.362 ratio |
| CAAGTTTGTGGTCCAGGAGCAACAGGTTATGCCATACAGCCTAGGTGTGTAGTAGGCTACACACCGTCTATGTTTGTGTTGTACACTCTACAATGTTTGCACAATGATCCATGACTCATGAAATCTTCTCAGAACATACCCCTGTTGTTAAGCGATACATGACTGTACTTTTTTTAAAAAGTCCAAGGATATA | 0.442 ratio |
| ATCTTCCCCCTCTTCCTTGCCCCACCAGCTCACCTTCCCGGGTTGTTTACTTTGAGCAAAGTAAACAAAGCCGGCATTCGTTAACCCTCTTCACGCGCATACTGCCAAAGTAAACAGATCTAACATGGTCCTTTGGCGACGCCAGGCTCCGGGAGAGCAAAGCACCGTGTCAGGGCCATGATCCGGGGTGGCC | 0.559 ratio |
| ATCTAATCCATACCAAGGATTCCCATGGGGAAACTGTTATCTCTCAACTCAGTGAGGGCTATTGACAAAGACCAGTGCTCTTTCTTCTCTGTAGGTAATCTGTGACTCATGCAAGCCTGAGGGAGAAAATACAGTATATCTAAGAGTTAAGACCTCCCAGCTTCACATTCTGTTATAGCAGCTGCTTCATGCC | -0.0237 ratio |
| TATCTCGTTACATGGCCTTCTTCCTTAGAACTTTTCAATATGGTATTAACTTCCTCATCCCTGATCTTGCCCTTAATTCCCAGTTTAAAGTCTTTGTTTACTTTGGAAATGACTTTTCGCCTGAGTGAAAAAAAAACGTGTTCTCAACCCATTTGTAGACTAACTCAGGCTCTGAAAATGATTGAAGCTGTGG | 0.465 ratio |
| ATCTTCCCCCTCTTCCTTGCCCCACCAGCTCACCTACGGGGGTTATTTGCACAAAGGAAAATAAATAAAGCCGGCATTCGTTAACCCTCTTCACGCGCATACTGCTGTTTGCTCTGCATCTAACATGGTCCTTACGCGAGGCGTGGCTCCGGGAGAGCAAAGCACCGTGTCAGGCGCATGATCCGGGCTCGCC | 0.395 ratio |
| TTGACCACTCTTCAAGTTCAATGACCACATTAAATCCTGAAGAATATTCATCTTTGCCTTTGGAATCATTTGTCCAGACTTCATCATCATCTAAGTAAACATCACCTTCAGACCCTTACCAGGAGAAAAGGCATGAGCTGGCTGTCTAAAAGGGCCCATCAAATGGGGAGAAATCACCATGTTCTAAAAGGGA | 0.44 ratio |

Set 4 — technique: RNA Bind-n-Seq; form: RNA; medium: in vitro; tested at: 365 nM; relative to: no-protein control; reading: higher = stronger binding
Target: RNA binding protein fox-1 homolog 2, RRM domain, GST-SBP tag (RBFOX2, Homo sapiens, UniProt O43251-10, residues 100-194)
Setting: natural RNA segment, single round, ends assumed
Constant ends, left off below: GGGAGUUCUACAGUCCGACGAUC … UGGAAUUCUCGGGUGCCAA
Target sequence (chain): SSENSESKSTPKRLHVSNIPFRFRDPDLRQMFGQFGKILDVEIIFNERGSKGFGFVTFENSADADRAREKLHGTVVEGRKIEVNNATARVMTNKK
| Sequence | RBNS enrichment (R) |
| --- | --- |
| GACCACCCUAUGUCUAUUAAGCCUGAGGGCAGGGGAUCCUGAGCACACUUUGGGCAGAAAUAAGUCACGAUCAUGAAGGAUGGACUGCCUGUCUCACCUGUCCCACAGAA | 0.527 |
| UAAAAGUUAUAAUGUGUAUUUGUAAAUAAAUGAUGAGUGAAAAAAUAAAAAAAUUUUAAAAAGCCAAUGGUUUCAAUUCCUGAUGAUGCAAAGAAGUUAUUUGGACUUUU | 1.23 |
| GAAACACACCGACUGCCUCAGCAAUCAUGCAAAGACCUUGCCUGGCCCGGUGGCAAGCGCUGAAAAACCGACCGCCUGUAGGCUCCUGGAACUAUACAGAUAGGUAAAGA | 0.707 |
| AGAGUAGAGUCACUGGAACACUAAUGAGGAAACUGCACUGUUUUAUUUUAAUUCAGUUGUUAGUGUGUCUUAGUGUGUGCAAUUUUUUUUCUUACUAAUAUCCAUGGUUU | 0.412 |
| UCAGAGGGGUGUAGGUUGCGAUCCUUGUCGCCUGAGGAGCCGGUGGACUGCUGAGCUAGUCCAGGGGUAGCCGGUCCCCUCAUGCAUCUGCUGCCUUAGCUUCUAGAACG | 0.352 |
| GGGAAGAAAUUUAAAUGGGGGAAAAUAAGCCAUCUUUUUAAACAAAAAUUAUUUUACCUACAGAGAGGUUGUAGUUUUGAGCACAUGUUAGUUCCUCCCUCUUCCCGAUG | 0.535 |
| CUGUCCAGAGGUUUUUAAAACUGGUGCAUUCACAGCAAAAAGGGAUUCUGUAGCUUUAACUUGUAAACCACAUCUUUUUUGCACUUUUUUUUAUAAAGCAAAAACGUGCC | 1.16 |
| AAACCACCUUUAAUCUAGAUACAUAGACUAACAGUGGAUUUUUUUUAACCCUUUAUCUUUCUGCCCACCCUGCCCAAACAUAUUUUAACCCAGGUUCUAAACUGAAACUG | 0.398 |
| CCAAAGCUUUGCUGUCAUCACAUAAAUGAAUUAAAUCACAUGUGAAAGGGAACACACCCAAUUUUAUGUUAAGGUGAAACCAGCAGUUUGCUUCUUUUAUUAGUAAUGUG | 0.282 |
| UAAGAAGAACCUGAGAAGGUUUUAUUUAUCGGUGGGGGAAGUAUAGCAAACGGUUCUAAAUGAAAAUCAGCAAACCUGAAAGCCUGGGAUUCUGACGCCUACUGGCUCUA | 0.221 |
| UCUAGCCAAAACAAAUUGCCAGUAUGGUUGAGGAAUUGAAUAUCAGAUGGCAUGCAGUCUCCCCUCCCCUCCCCUAUCAAGGACAGUAGAAGCUGCAAACCUCUUCUCAG | 0.996 |
| UUGUUAAUAAACCUAACAAUGACCCUGAUAGUACAGGUUAAGUGAGAGAACUAUAUGAAUUCUAACAAGUCAUAGGUUAAUAUUUAAGACACUGAAAAAUCUAAGUGAUA | 0.31 |

A few entries again (set 2):
| Substitution | binding fitness [natural log] |
| --- | --- |
| N42H | -0.0248 |
| L31S | -0.222 |
| K36G | -0.0863 |
| N42D | -1.1 |
| E33C | -0.204 |
| A40I | -0.0293 |
| V56F | -0.675 |
| M51W | -0.08 |
